Measured values pooled from the literature.
Parts stem from different laboratories: compare values within a part only. Substitutions count along the parent as printed.

Series 1
Target: RING finger protein unkempt homolog, zinc fingers 1-6, GST-SBP tag (UNK, Homo sapiens, UniProt Q9C0B0, residues 30-357)
Method: RNA Bind-n-Seq
Molecule type: RNA
Sample: in vitro
Tested at: not given
Notes: RNA with constant flanks, human and mouse sites, ends assumed
Relative to: input RNA pool
Direction: higher = stronger binding
Residues (chain): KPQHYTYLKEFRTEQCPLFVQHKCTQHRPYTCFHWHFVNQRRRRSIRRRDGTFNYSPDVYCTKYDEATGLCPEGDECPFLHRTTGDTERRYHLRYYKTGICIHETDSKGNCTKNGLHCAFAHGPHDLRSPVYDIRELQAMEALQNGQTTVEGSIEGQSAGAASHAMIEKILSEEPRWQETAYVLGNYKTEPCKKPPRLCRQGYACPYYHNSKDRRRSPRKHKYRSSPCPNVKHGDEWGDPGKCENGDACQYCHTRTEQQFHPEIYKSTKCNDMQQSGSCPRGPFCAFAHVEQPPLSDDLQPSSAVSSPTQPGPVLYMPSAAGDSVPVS
With `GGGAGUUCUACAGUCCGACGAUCAAGUUUGUACCCCUGUCCUUCCCUUUACGCCACUAGUGUGUAGGCAGAUGUCUGAGUCCCUAGGUGGUUUCUAGGAUUGAUAGCAAUUAGCUUUGAUGAACCCAUCCCAGGAAAAAUAAACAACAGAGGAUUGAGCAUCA` the bound/input enrichment was 0.605 ratio.
The bound/input enrichment of `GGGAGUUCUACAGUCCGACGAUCCUCAGGAUGUCUUCAUCACAUUUUGCCAGUCGACACAGGAAGGAUAUAAGUACUGAAAUGAUUAGAACUAAAAUUGCUCAUAGGAAAUCACUGUCUCAGAAAGAAAAUAGACAUAAGGAACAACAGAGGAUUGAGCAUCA` is reported as 3.14 ratio.
`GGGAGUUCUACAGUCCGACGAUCGUUUUUAGAAGUUAUGAACCUGGUGAACCAAACUGCAGAAUUUAUGUAAAGAAUUUAGCUAGACAUGUUCAGGAAAAGGACCUUAAAUUUAUAUUUGGAAGAUACGUUGACUUUUCUUCACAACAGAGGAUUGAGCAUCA` gave a bound/input enrichment of 3.43 ratio.
With `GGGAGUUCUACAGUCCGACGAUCCAUAUCAGUGACGUGGUGCUGGACAAGGCCAAUAAAACACCACUGCGGCCACUGGAUCCCACUAGACUACAAGGCAUAAAUUGUGGCCCAGACUUCACUCCAUCCUUUGCCAACCUUGGCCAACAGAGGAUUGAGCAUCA` the bound/input enrichment was 0.112 ratio.
For `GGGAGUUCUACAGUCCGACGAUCCAGCUCCAGUCCAAUACCUACGACCUCCAGGAGAGCAACGUGGGGUUGAAACUCACAAUUGUGAGCACUGUAGGCUUUGGGGAUCAGAUCAACAAGGAGGACAGCUACAAGCCCAUCGUGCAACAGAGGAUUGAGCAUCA`, the bound/input enrichment was 0.0959 ratio.
The bound/input enrichment of `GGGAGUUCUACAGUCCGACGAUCGGACCAUAAUCAUGGUGGACAUGAUGGACUUGCCCAGGUCGCGCAUCAACGCCGGCAUGCUAGCUCAAUUCAUCGACAAGCCUGUCUGCUUCGUAGGGAGGCUGGAAAAGAUUCAUCCCACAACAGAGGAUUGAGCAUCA` is reported as 0.104 ratio.
`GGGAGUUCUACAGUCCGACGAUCAGCUCAUCUAGCAAGGAGAAGAGUGAGACGGAAAAGGAAACUUCUUUGGUAAAACAAACAUUGGCUAAAAUGCAGCAGCAAGAGCAAAAGGAGCAGGCCCAGUGGACUCCUACUAAGUUUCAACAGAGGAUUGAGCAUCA` gave a bound/input enrichment of 0.265 ratio.
For `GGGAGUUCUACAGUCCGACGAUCAAGGGAAUGGAGGAAGGAGAAGACAAUUUGCUCUGUAACCUUCGAGAAGUUCAGUGCCUUAUCUGUUGUCUCUUGCACCAAAUGUACAUUGCAGAUCCCAACAUUGCUAAGCUUGUUCACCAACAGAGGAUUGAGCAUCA`, the bound/input enrichment was 0.099 ratio.
The bound/input enrichment of `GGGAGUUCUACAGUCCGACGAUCCUAAGUGUCCUCCGUUUGCUCCUUGUGACCAUGGGACUCCUCUUUGUUUUGCUCCUCCUCCUGAUCAUCCUUACCGAGUCUGACCUUGACAUUGCCUUUUUCCGUGAUAUCCGCCAGACCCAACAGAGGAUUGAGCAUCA` is reported as 0.162 ratio.
With `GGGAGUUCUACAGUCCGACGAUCAUGUAUGAAGAUGCCCAACUUCAGAUAUAUACUUUAAUGCACAGAGAUUCUUUUCCAAGGUUUUUGAACUCUCAAAUUUAUAAGUCAUUUGUUGAAAGUACUGCUGGCUCUUCUUCUGAACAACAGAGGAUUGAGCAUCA` the bound/input enrichment was 0.594 ratio.
`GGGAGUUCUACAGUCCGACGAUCCUAUGUAAGUUUCAUUUAGAAAGACAUGCAUUUAUAUUUUGUUUCUGUAAUAUUCUACUGUAGGUGAAAUCUUUUCAAAAAUCAAGAGACUGGGUAGAUAAGAAUAUAUGAAUGACUAAUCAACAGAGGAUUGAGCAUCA` has a bound/input enrichment of 1.35 ratio.

Series 2
Target: CCND2, cyclin fold, Cln2 fusion (human)
Method: yeast growth competition, sequencing
Sample: yeast
Notes: weak parent motif
Relative to: not given
Direction: higher = stronger binding
Starting sequence: CDC6 docking peptide (human); TLKGRRLVFDNQL; partner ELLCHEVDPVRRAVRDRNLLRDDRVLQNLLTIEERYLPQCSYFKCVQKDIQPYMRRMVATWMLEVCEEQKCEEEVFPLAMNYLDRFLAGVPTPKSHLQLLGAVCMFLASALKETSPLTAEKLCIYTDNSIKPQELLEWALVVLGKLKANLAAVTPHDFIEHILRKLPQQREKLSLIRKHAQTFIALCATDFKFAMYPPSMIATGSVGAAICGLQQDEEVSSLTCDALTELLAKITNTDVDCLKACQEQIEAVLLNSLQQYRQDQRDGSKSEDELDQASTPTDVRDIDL
`N11M`: “normalised enrichment score” 0.0385.
`K3P`: “normalised enrichment score” 0.313.
For `F9V`, “normalised enrichment score” read -0.023.
Under “normalised enrichment score”, `R5D` is recorded as -0.328.
`T1R` — result for “normalised enrichment score”: -0.228.
`Q12S`: “normalised enrichment score” -0.154.
`K3M` — result for “normalised enrichment score”: 0.438.
Under “normalised enrichment score”, `Q12G` is recorded as 0.781.
`T1E` — result for “normalised enrichment score”: 0.341.
`Q12H` — result for “normalised enrichment score”: 0.338.
Under “normalised enrichment score”, `V8Q` is recorded as -0.0231.
For `Q12A`, “normalised enrichment score” read 0.546.
`K3I`: “normalised enrichment score” 0.513.
`N11W`: “normalised enrichment score” 0.491.
Under “normalised enrichment score”, `L2W` is recorded as 0.444.
`N11S`: “normalised enrichment score” 0.166.
For `D10G`, “normalised enrichment score” read -0.224.
For `R6V`, “normalised enrichment score” read 0.787.
`K3C`: “normalised enrichment score” 0.397.
`L13N` — result for “normalised enrichment score”: 0.38.
Under “normalised enrichment score”, `F9K` is recorded as 0.597.
For `R6P`, “normalised enrichment score” read 0.0665.
Under “normalised enrichment score”, `V8T` is recorded as 0.627.
For `N11T`, “normalised enrichment score” read -0.0945.
For `N11K`, “normalised enrichment score” read 0.0906.

Series 3
Target: ABI1, truncated, D143A, DHFR fusion (Arabidopsis thaliana)
Method: DHFR PCA, deep sequencing
Sample: yeast
Notes: methotrexate growth selection, single substitutions
With: (+)-ABA 58 µM
Relative to: wild-type fitted maximum
Direction: higher = stronger binding
Starting sequence: PYL1, truncated, DHFR fusion (Arabidopsis thaliana); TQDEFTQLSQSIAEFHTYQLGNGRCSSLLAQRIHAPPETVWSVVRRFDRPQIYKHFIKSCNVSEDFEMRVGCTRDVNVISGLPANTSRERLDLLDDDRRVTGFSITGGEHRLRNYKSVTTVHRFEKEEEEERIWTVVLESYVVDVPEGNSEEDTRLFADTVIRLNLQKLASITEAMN
`E14Y` — result for “relative binding score”: 49.5%.
For `V145T`, “relative binding score” read 67.8%.
`S11E`: “relative binding score” 103%.
For `E139A`, “relative binding score” read 55.6%.
For `S42G`, “relative binding score” read 92.5%.
`P50N`: “relative binding score” 0.494%.
Under “relative binding score”, `E152C` is recorded as 73.5%.
`D95W` — result for “relative binding score”: 22.3%.
For `C72T`, “relative binding score” read 78.3%.
Under “relative binding score”, `T173P` is recorded as -7.02%.
`I79R`: “relative binding score” 68.3%.
`T119G` — result for “relative binding score”: -11.7%.
Under “relative binding score”, `S150Q` is recorded as 55.6%.
For `E125A`, “relative binding score” read 94.3%.
`R69Y` — result for “relative binding score”: 72.1%.
For `I52N`, “relative binding score” read 71.7%.
Under “relative binding score”, `H110W` is recorded as 22.7%.
`S150A` — result for “relative binding score”: 57.2%.
For `G81D`, “relative binding score” read 14.5%.
`T160N`: “relative binding score” 69.1%.

Series 4
Target: Histone acetyltransferase KAT6A, both winged helices, GST fusion (KAT6A, Homo sapiens, UniProt Q92794, residues 1-181)
Method: protein binding microarray
Molecule type: double-stranded DNA, one strand shown
Sample: in vitro
Tested at: not given
Notes: 8-mer, flanks averaged, mean of 2 arrays, mostly near background
Relative to: not given
Direction: higher = stronger binding
Target sequence (chain): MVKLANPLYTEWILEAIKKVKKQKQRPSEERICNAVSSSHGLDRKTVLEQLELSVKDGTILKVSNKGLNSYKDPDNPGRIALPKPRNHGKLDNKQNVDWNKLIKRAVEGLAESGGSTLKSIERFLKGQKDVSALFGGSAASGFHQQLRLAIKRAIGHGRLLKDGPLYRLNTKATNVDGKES
`CGGTACGA` has an E-score of 0.093.
With `CTAAGTCA` the E-score was -0.0755.
The E-score of `AATATCTA` is reported as -0.189.
With `CCTGTGGA` the E-score was -0.246.
`AACCCGAA` gave an E-score of 0.117.
`CTGTTCTC` has an E-score of -0.0254.
For `ATACTCAT`, the E-score was -0.217.
With `CTACAGTA` the E-score was -0.101.
`GTAATTGA` gave an E-score of 0.0454.
`CGCCAACC` has an E-score of 0.113.
`ACCCTGAA` gave an E-score of -0.173.
The E-score of `GAAGGCCC` is reported as 0.0392.
`CCATGGGA` gave an E-score of -0.143.
`AGGCACAC` gave an E-score of -0.213.
`AAACTTTA` gave an E-score of -0.0234.
`GTCGTAAA` has an E-score of 0.0291.
`CTTGCTTC` gave an E-score of -0.203.
With `CTTGCGCC` the E-score was 0.286.
The E-score of `CGAATCGC` is reported as 0.118.

A few entries again (series 1):
`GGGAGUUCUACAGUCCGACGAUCAGCUCAUCUAGCAAGGAGAAGAGUGAGACGGAAAAGGAAACUUCUUUGGUAAAACAAACAUUGGCUAAAAUGCAGCAGCAAGAGCAAAAGGAGCAGGCCCAGUGGACUCCUACUAAGUUUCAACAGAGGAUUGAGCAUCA` gave a bound/input enrichment of 0.265 ratio.
With `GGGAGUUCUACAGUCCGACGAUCAAGUUUGUACCCCUGUCCUUCCCUUUACGCCACUAGUGUGUAGGCAGAUGUCUGAGUCCCUAGGUGGUUUCUAGGAUUGAUAGCAAUUAGCUUUGAUGAACCCAUCCCAGGAAAAAUAAACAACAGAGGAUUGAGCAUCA` the bound/input enrichment was 0.605 ratio.
`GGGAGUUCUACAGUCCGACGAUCCUAUGUAAGUUUCAUUUAGAAAGACAUGCAUUUAUAUUUUGUUUCUGUAAUAUUCUACUGUAGGUGAAAUCUUUUCAAAAAUCAAGAGACUGGGUAGAUAAGAAUAUAUGAAUGACUAAUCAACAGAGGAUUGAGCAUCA` has a bound/input enrichment of 1.35 ratio.
With `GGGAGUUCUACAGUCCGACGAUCAUGUAUGAAGAUGCCCAACUUCAGAUAUAUACUUUAAUGCACAGAGAUUCUUUUCCAAGGUUUUUGAACUCUCAAAUUUAUAAGUCAUUUGUUGAAAGUACUGCUGGCUCUUCUUCUGAACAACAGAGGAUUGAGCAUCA` the bound/input enrichment was 0.594 ratio.
For `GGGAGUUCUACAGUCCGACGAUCAAGGGAAUGGAGGAAGGAGAAGACAAUUUGCUCUGUAACCUUCGAGAAGUUCAGUGCCUUAUCUGUUGUCUCUUGCACCAAAUGUACAUUGCAGAUCCCAACAUUGCUAAGCUUGUUCACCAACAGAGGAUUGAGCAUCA`, the bound/input enrichment was 0.099 ratio.
The bound/input enrichment of `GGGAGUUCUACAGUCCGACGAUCCUAAGUGUCCUCCGUUUGCUCCUUGUGACCAUGGGACUCCUCUUUGUUUUGCUCCUCCUCCUGAUCAUCCUUACCGAGUCUGACCUUGACAUUGCCUUUUUCCGUGAUAUCCGCCAGACCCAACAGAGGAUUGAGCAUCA` is reported as 0.162 ratio.
`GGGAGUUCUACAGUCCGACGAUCGUUUUUAGAAGUUAUGAACCUGGUGAACCAAACUGCAGAAUUUAUGUAAAGAAUUUAGCUAGACAUGUUCAGGAAAAGGACCUUAAAUUUAUAUUUGGAAGAUACGUUGACUUUUCUUCACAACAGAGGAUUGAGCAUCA` gave a bound/input enrichment of 3.43 ratio.
